Measurements pooled from the literature.
Lines come from different studies, so protocols differ. ± gives the spread as reported.

SMILES | host | sample | route | dose | setting | half-life
N#Cc1ccnc(N2C(=O)CC[C@H]2C(=O)N(c2cc(F)cc(F)c2)[C@H](C(=O)NC2CC(F)(F)C2)c2ccccc2Cl)c1 (stereo in doubt) | beagle dog | plasma | – | – | – | 32.5 h
CCCC[C@H](OC(C)=O)c1ccccc1C(=O)O | beagle dog, both sexes | whole blood | intravenous | 0.5 mg/kg | single dose, fitted within 1 h | 0.33 ± 0.14 h
N#Cc1ccnc(N2C(=O)CC[C@H]2C(=O)N(c2cncc(F)c2)[C@H](C(=O)NC2CC(F)(F)C2)c2ccccc2Cl)c1 | beagle dog | plasma | – | – | – | 19 h
OCC1OC(n2cnc3c(NCc4ccc(Br)s4)ncnc32)C(O)C1O (centres unmarked) | Beagle dogs, both sexes | blood | oral | 3 mg/kg | – | 6.9 to 9.4 h
CCC1(CC)CC(=O)N(C2CCOc3ccc(C(=O)NC4CC(C)(C)Oc5ccccc54)cc32)C(=N)N1 (centres unmarked) | beagle dog male | plasma | – | – | – | 12.8 ± 6.9 h
Nc1nc2cnc(C(=O)N3CCOC[C@@H]3c3ccc(C(F)(F)F)cc3)cc2c2c1COC2 | dog | – | – | 2 mg/kg | – | 9.1 h
CCC1(CC)CC(=O)N(C2c3cc(C(=O)NC4c5ccccc5CC4O)ccc3OC2(C)COC)C(=N)N1 (centres unmarked) | beagle dog male | plasma | – | – | – | 11 ± 4.4 h
Cl.NCc1ccc2c(c1)CN(C1CCC(=O)NC1=O)C2=O (centres unmarked) | male Beagle dog | whole blood | – | – | – | 0.122 h

For quick reference, copied from above:
SMILES | host | sample | route | dose | setting | half-life
N#Cc1ccnc(N2C(=O)CC[C@H]2C(=O)N(c2cc(F)cc(F)c2)[C@H](C(=O)NC2CC(F)(F)C2)c2ccccc2Cl)c1 (stereo in doubt) | beagle dog | plasma | – | – | – | 32.5 h
